# Measured values gathered from unrelated publications.
# Every numbered part comes from another study and shows a few of its results, in no order. Substitutions count along the parent as printed.

# Set 1 — method: DHFR PCA, deep sequencing; medium: yeast; with: (+)-ABA 2500 µM; baseline: wild-type fitted maximum; reading: higher = stronger binding
# Target: ABI1, truncated, D143A, DHFR fusion (Arabidopsis thaliana)
# Setting: methotrexate growth selection, single substitutions
# Starting sequence: PYL1, truncated, DHFR fusion (Arabidopsis thaliana); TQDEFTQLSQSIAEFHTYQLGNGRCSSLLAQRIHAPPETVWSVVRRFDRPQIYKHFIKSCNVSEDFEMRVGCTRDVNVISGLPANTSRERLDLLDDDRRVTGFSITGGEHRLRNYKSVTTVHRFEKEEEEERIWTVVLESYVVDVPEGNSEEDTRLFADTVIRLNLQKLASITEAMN
Variant,relative binding score [%]
A35R,76.9
W134F,109
W41A,2.29
Y141M,62.7
T160S,90.3
T173Q,75.7
D95A,88.2
T119M,99.8
V43A,91.3
V76A,82.6
R111H,73.5
R155K,92.2

# Set 2 — method: RNA Bind-n-Seq; molecule type: RNA; medium: in vitro; tested at: 365 nM; baseline: no-protein control; reading: higher = stronger binding
# Target: RNA binding protein fox-1 homolog 2, RRM domain, GST-SBP tag (RBFOX2, Homo sapiens, UniProt O43251-10, residues 100-194)
# Setting: natural RNA segment, single round, ends assumed
# All sequences stand within: GGGAGUUCUACAGUCCGACGAUC … UGGAAUUCUCGGGUGCCAA
# Residues (chain): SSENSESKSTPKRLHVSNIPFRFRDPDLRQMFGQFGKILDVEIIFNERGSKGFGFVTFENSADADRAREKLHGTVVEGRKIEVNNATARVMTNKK
Oligonucleotide,RBNS enrichment (R)
AUAGUAGAUGUGAGAACUUGGGUUUGGUCCUCAGGUAACAGAGAGGGUGAAGGGGAGAGGAGGAGCUAGUAUUAGCCAAAGUGAUAGAAAACCUGAUUUUCAUCUCGUAC,0.74
UUGCUUUUUAUAUUUAACUAGGAUACUUUUAUAUGAUGGGUGCUUUGAGUGUGAAUGCAGCAGGCUCUCUUGUUUCCGAGGUGCUGCUUUUGCAGGUGACCUGGUUACUU,2.12
CUCCUUCUGGCUCUGAUGUCCUGUGACUGUAGUGUCACCACCUCCCCUGGGAGUCAGACCAGGGACUCCUCAGGGAGUGAAAUGUGCUUCAGGACACACAGGACUCGAGC,0.283
GGGAAGACACAGAGACUCGUACCUGCGCUGUUUGUGCCGCCGCUGCCUCUGGGCCCUCCCAGCACACGCAUGGUCUCUUCACCGCUGCCCUCGAGUUCCAUGUCUCUUUC,0.641
UGCCUCCAGCUCCAAGGACUCUGCCUACAGGAGUGUGCCUUGGGGCUGAAAGGCCAUGCAAACACAACAAACUAAUAACUCAGUCCCAAAGCACCCUGCAGCCCUGCAGA,0.306
UCUGUGACUUAGGCUAGCCCUAGGGUACUGAGGUGGCAGCUGCAUGGCUGUGGCCUGAAGUUGCACUUGCAAAGGUCCUGCUUCUACAGGACGCUGAGGUACUUACUACC,0.218
UUGCAUCAGUUUUGGUCUGCCUUAUGAGUUCUGUUUUGAACAAGUGUAACACACUGAUGGUUUUAAUGUAUCUUUUCCACUUAUUAUAGUUAUAUUCCUACAAUACAAUU,0.876
CACCAAUGAGUGAAAGGGAUCGUGGGUCAGGGACACCGAGAGAGUGAGGUCACUUCCACUUCAAACCUUCAGUGAGGGGGUGGGAUGGAGAGAAUGCUGAAUCUUUUUUU,0.294
CUUCCUUUAGCAAAAAUUACUAUAAAGUUCAGGACAGUUUGAAAUAAAACCCAGGAAACAAGAUUAAUGUGAGCAGUUCUCCAAGAUCCUAACUGGUGGGACAUAAACUA,0.283
UUAUCAUAGAAUUUUUUAAUGAAACUAAAUUCAAUUGAAAUAAAUGAUAGUUUUCAUCUCCAUUCAGGAUCUGUAUUUCUGUGCUUCAAGGGAUUCCUGACUCAUGUUCU,0.289
GAUUGACUUUAGUUGACUGCACUAUAUAAUAUAGAACUAUGAAUAUGUAGAAUAACAUGAAAAAUUGGAGGUGCUGGUGGUAUGGCUGACCCUGUUUCAGAAGCAGGAUA,1.15
GUCUGCCACACCUGCAGUAACACAGAGCAACAGAUUCCCAGCCCGUGAUGAGAGCCUGUAGCUCGUGACACACUUCUUUGGGUUACUCUGCUACAUUUCUGUAAGAGAGU,0.387

# Set 3 — method: protein binding microarray; molecule type: double-stranded DNA, one strand shown; medium: in vitro; tested at: not given; baseline: not given; reading: higher = stronger binding
# Target: Histone acetyltransferase KAT6A, winged helix 2, GST fusion (KAT6A, Homo sapiens, UniProt Q92794, residues 85-181)
# Setting: 8-mer, flanks averaged, mean of 2 arrays, mostly near background
# Residues (chain): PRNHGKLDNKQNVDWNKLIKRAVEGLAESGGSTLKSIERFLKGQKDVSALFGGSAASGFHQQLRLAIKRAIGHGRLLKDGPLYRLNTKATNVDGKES
Oligonucleotide,E-score
GTCGCGAA,0.0388
CCGCCTCA,0.203
ACCCACCG,0.161
AGGGGAGC,-0.0217
CACTGCCA,0.234
CGCATCAG,0.174
CGGTTCAG,-0.0665
CGACTATA,-0.165
CAGGCCAA,-0.126
GGCCGGGA,0.287
CCCAAAAA,0.0127
AACCGCAC,0.103
CCGATGCA,0.0262
TAGAGAAA,-0.065
GATATAGA,0.0678
AGAGAGAC,-0.112
CCTTCGCA,0.0367
CGAGCACA,0.124
ATGTCAGC,-0.0257
CAAGACGC,0.053
GAATCGGC,0.148
CTAAATTA,0.114
AGTCCGTC,-0.126
CCCTATGC,-0.0313
CACCCGTC,0.13

# Set 4 — method: RNAcompete; molecule type: RNA; medium: in vitro; tested at: 20 nM; setting: 7-mer, probes averaged, single round; baseline: mean of 7-mers; reading: higher = stronger binding
# Target: PABPC1L2, full length, GST fusion (mouse, UniProt A0ABA7IW68)
# Target sequence (chain): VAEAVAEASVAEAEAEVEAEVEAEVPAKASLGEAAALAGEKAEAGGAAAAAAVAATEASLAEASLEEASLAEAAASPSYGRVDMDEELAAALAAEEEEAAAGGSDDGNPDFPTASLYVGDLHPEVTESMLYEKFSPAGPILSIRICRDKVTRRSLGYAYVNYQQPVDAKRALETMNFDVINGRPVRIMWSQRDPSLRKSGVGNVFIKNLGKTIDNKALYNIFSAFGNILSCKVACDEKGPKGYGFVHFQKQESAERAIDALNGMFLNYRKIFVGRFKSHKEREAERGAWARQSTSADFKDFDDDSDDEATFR
Oligonucleotide,7-mer Z-score
UACUCGU,-0.396
AUGUUCC,-0.258
AGUGGAU,0.108
UAUACAU,-0.0917
GGAACUU,-0.0863
CGUGUUA,-0.434
UCACUAC,-0.199
UUGAACC,-0.304
CGUCAUA,-0.166
UUUACUU,-0.139
CCGGCGA,-0.0826
GACAUCU,-0.237
GUUUGCG,-0.447
GCGUGAU,-0.0536
GCACGGU,0.0116
CCAGAAU,-0.139
GAACAUA,0.213
GUCCGGU,-0.22
CCCAGAC,-0.255
UGUGACC,-0.157
UUUGCGC,-0.44
AUCGUCU,-0.391
GGGAAUU,-0.0482
UUGUUUG,-0.501
CAUAGCG,-0.296

# Set 5 — target: CCNB3, cyclin fold, Cln2 fusion (human); method: yeast growth competition, sequencing; medium: yeast; setting: weak parent motif; baseline: not given; reading: higher = stronger binding
# Starting sequence: E2F2 docking peptide (human); LPAKRKLDLEGIG
Variant,normalised enrichment score
LPAKRKLDLEAIG [G11A],0.351
LPAKAKADLEGIG [R5A L7A],0.479
LPAKRKLDLEGIA [G13A],1.04
LPAKRKLALEGIG [D8A],0.0616
LPAKRKLDAEGIG [L9A],0.0551
LPAKAKLDLEGIG [R5A],0.433
LPAKRKLDFEGIG [L9F],3.49
LPAKRALDLEGIG [K6A],0.268
LPAKKKLDLEGIG [R5K],0.291

# Set 6 — method: RNA Bind-n-Seq; molecule type: RNA; medium: in vitro; tested at: not given; setting: RNA with constant flanks, ends assumed; baseline: input RNA pool; reading: higher = stronger binding
# Target: RING finger protein unkempt homolog, zinc fingers 1-6, GST-SBP tag (UNK, Homo sapiens, UniProt Q9C0B0, residues 30-357)
# All sequences stand within: GGGAGUUCUACAGUCCGACGAUC … CAACAGAGGAUUGAGCAUCA
# Residues (chain): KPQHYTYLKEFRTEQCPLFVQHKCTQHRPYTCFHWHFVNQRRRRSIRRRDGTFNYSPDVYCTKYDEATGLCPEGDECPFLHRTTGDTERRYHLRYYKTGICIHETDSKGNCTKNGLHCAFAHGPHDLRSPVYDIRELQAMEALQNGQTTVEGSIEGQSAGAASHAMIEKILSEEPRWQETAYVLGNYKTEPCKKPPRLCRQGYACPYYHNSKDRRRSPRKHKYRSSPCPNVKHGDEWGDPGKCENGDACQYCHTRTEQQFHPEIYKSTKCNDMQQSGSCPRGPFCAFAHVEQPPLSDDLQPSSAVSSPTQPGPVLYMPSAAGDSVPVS
Oligonucleotide,bound/input enrichment [ratio]
GGUGUAUCUAACUGGUGCACAAAUUACAUCAGGAUCAAUCAUGAUUUCUUAAAGUCUGGACCGCUGAUCCAAACCAACUAGGUACUUCCAUACGUAUAUGGAAUGGAAUGUGGUGUCCUU,0.816
GAUGAGGCCCAGAAGCCUUACCUGGUACAACGGAGAGGAGCUGAAUUUGCUUUGACAACUACCGUAAAGCAUUUUGGUGGUGAAAUGGCAGUGAAGUUGCCACAUCUCUGGGAUGCUAUG,0.0705
CGUACAACUAGAGGAAAGCGGAAGAGGGUUGAUGUGGAAGAAUCAGAGGCGAGUAGCCGUGUCCGCAUCUCUCAUUCCGCCUCAGCCACUGGAAAUGUUUGCAUCGAAGAAAUUGAUGUU,0.141
CUGCCCUACGCGCUGCAUAAGUGGAGCUCCUUCUCCUCCACCUACCUUCCCGAGAACAUUUCCGUGGAUAAACCAAAUGAUCAGUCUUCCAGAUGGUCUUCAGAGAGCAACUAUCCUCCC,0.353
UAUUUUGUAAAUACUGUAUACCAUGUAUUAUGUGUACAUUGUUCAUACUUGAGAGGACAUUACCGUUUUGUUAUGAAAGUAUGUAUUUUGCCCUGCAGCUGUGGUGGUGUUUUGUAUAUA,0.187
AUUGCAACAAAUGGAGAAAGUGCUGUAGUGCAAUUACCAAAAAAUGGCCCCAUUUAUGAUGCCGUUUGGAAUUCUAGUUCUACUGAGUUUUGUGCUGUAUAUGGUUUUAUGCCUGCCAAA,0.132
AAAACUACUAUUUUUAGUAUACUUGUUUACGUAAAUGCUGAUUGGAAAUAUUUAAAUGACUACCGAUCUGAUUCUUUCUUUUCCUUUGGAAACUGGGAUUAAUGUAUGCUCUAGAUCCAU,0.361
AGCGGUGGGAACCACAUUGGCGGGUCUGGGUUGGGGUUAAAGGGAGAUUGGAGAUUUGAUUCCGGACCACAAAAAGGCUUUGUGGCUAACAUGGCGUGGCCGUGCAUCACAAGGGCCUGC,0.157
GAAGGAGACGGCGAGGGUGAGACCUAUUACUACGAAUACCCCUACUACGAAGACCCCGAAGACCCCGGGAAGGAGCCCACCCCCAGCAAGAAGCCCGUGGAAGCUGCCAAAGAAACCACA,0.24
CAUCUCCUCGUCCGACCUCACAGGCCGACAAGAUACCUCUCGCAUGUCCACCUCACAGAACCGCAUUCCUUUCGAACACCACGGCAAGUAGCUGCUCGUCUCCCAUCGGAAGGCAGCACU,0.241
CUCAGCCUGGGCGGCAACCAGCUGCAGAGCAUCCCCGCCGAGAUCGAGAACUUGCGGAGUUCCGAAUGUUUAUACCUUGGAGGAAACUUCAUUAAAGAAAUCCCACCAGAAUUAGCAAAU,0.825

# Excerpt of the above (set 3):
Oligonucleotide,E-score
CCCAAAAA,0.0127
AACCGCAC,0.103
CCGATGCA,0.0262
TAGAGAAA,-0.065
GATATAGA,0.0678
AGAGAGAC,-0.112
CCTTCGCA,0.0367
